Assay results collected from several papers.
Each line is one published result; not all experiments were run side by side. Several values in a cell are separate wells, animals, samples, runs or records.
Target: Aurora kinase B (AURKB, Homo sapiens, UniProt Q96GD4)

| Compound | test | system | setting | scale | endpoint | value |
| --- | --- | --- | --- | --- | --- | --- |
| Cc1ccc(C(=O)NC(C)c2cccc(-c3ccncc3)c2)cn1 (stereo not shown) | cell-free assay, competition with immobilised ligand |  | 10 µM |  | remaining binding | 28% |
| Cc1cccc(O[C@H]2CCC[C@@H](C(C)CNCc3ccncc3)C2)c1 (relative stereo) | enzyme activity, inhibitor |  | 10 µM |  | inhibition | -1% |
| CN1CC[C@@H](COc2cnc(C#N)cc2-c2ccn3nc(NC(=O)C4CC4)cc3c2)C1 | enzyme activity, inhibitor |  | 1 µM |  | inhibition | 14% |
| COc1cc(Nc2nccc(-c3cnn4nc(OC)ccc34)n2)cc(C(F)(F)F)c1 | binding, competition with immobilised ligand |  | 1 µM |  | remaining binding | 100% |
| C=CC(=O)Nc1cccc(-c2cnc3[nH]cc(C(=O)NC(C)(C)C)c3n2)c1 | enzyme activity, inhibitor |  | 0.1 µM |  | inhibition | 18% |
| NC(=O)[C@@H](O)C[C@H]1CCc2sc3ncnc(O[C@H]4CC[C@H](N5CCOCC5)CC4)c3c21 | enzyme activity, inhibitor |  | 10 µM |  | inhibition | 6% |
| Nc1ncc(-c2cc(-c3cnn(CC(F)(F)F)c3)ncc2F)nc1C(=O)NC1CNCC(F)C1 (stereo not shown) | enzyme activity |  | 1 µM | reference: DMSO control | remaining activity | 86.2% |
| COCC12C(=O)NC3C4(C(OC)CC1O)C1CC5(O)C(OC)C(O)C(OC(C)=O)(C1C5OC(=O)c1ccccc1)C3(O)C(OC)C24 (stereo not shown) | kinase activity, inhibitor, ProQinase kinase profiling |  | 25 µM | reference: control | remaining activity | 106% and 101% |
| c1ccc2c(Nc3cc(C4CCC4)[nH]n3)nc(Nc3ccc4nc[nH]c4c3)nc2c1 | enzyme activity, inhibitor |  | 0.25 µM |  | remaining activity | 4% |
| Nc1ncc2c(n1)-c1c([nH]c3ccc(C4=CCOCC4)cc13)CCC2 | binding, competition with immobilised ligand |  | 1 µM |  | remaining binding | 81% |
| Nc1nc(Nc2ccccc2)sc1C(=O)c1ccccc1 | enzyme activity, inhibitor |  | 10 µM |  | remaining activity | 59% |
| CCN1CCN(Cc2ccc(C(=O)Nc3ccc(C)c(NCc4cnc5[nH]ccc5c4OC)c3)cc2C(F)(F)F)CC1 | binding, competition with immobilised ligand |  | 1 µM |  | remaining binding | 54% |
| CC(=O)N1c2ccc(-c3ccc(CNC(=O)c4cn5cc(-c6cnc(N)nc6)nc(N6CCOCC6)c5n4)cc3)cc2CC[C@@H]1C | KINOMEscan |  | 10 µM |  | remaining binding | 78% |
| CNC(=O)C1CCN(c2cc(C)c(F)cc2NC(=O)c2ccc(-c3cc(O)ccc3C)c(C)c2)CC1 | binding, competition with immobilised ligand |  | 1 µM |  | remaining binding | 100% |
| COc1ccc(NC(=O)Nc2ccc3c(c2)C(=O)N(C(C)CO)CC(C)C(CN(C)Cc2ccc4c(c2)OCO4)O3)cc1 (stereo not shown) | kinase activity |  | 0.03 µM | reference: control | remaining activity | 17% |
| CN1CCN(Cc2ccc(NC(=O)c3cccc(C#Cc4cnc(N)c5ncccc45)c3)cc2C(F)(F)F)CC1 | cell-free assay, competition with immobilised ligand |  | 50 nM |  | remaining binding | 29% |
| CNC1C[S+]2CC[S+]3CC[S+](C1)[Ru-4]321([N]=C=S)[n]2c3ccc(OC)cc3c3c4c(c5cc(F)c[n+]1c5c32)C(=O)NC4=O (stereo not shown) | KinomeScan |  | 0.1 µM | reference: untreated | remaining binding | 87% |
| CN1C[C@@H](c2c[nH]c3cc(Br)ccc23)NC[C@@H]1c1c[nH]c2cc(Br)ccc12 | enzyme activity, inhibitor |  | 10 µM |  | remaining activity | 78% |
| COc1c(Cl)cccc1Nc1c(-c2ccncc2C#C[C@@]2(C)CCCN2C(=O)/C=C/CN(C)C)[nH]c2c1C(=O)NCC2 | cell-free assay, competition with immobilised ligand |  | 3 µM |  | remaining binding | 84% |
| CS(=O)(=O)Nc1cccc(-c2csc3cnc(Nc4ccc(N5CCN(CCCCCOc6cccc7c6C(=O)N(C6CCC(=O)NC6=O)C7=O)CC5)cc4)nc23)c1 (stereo not shown) | probe labelling, inhibitor, KiNativ chemoproteomics | MOLT-4 | 1 µM |  | inhibition | 63.2% |
| COc1ccc(O)cc1-c1c[nH]c2ncc(-c3cncc(C(=O)N(C)C)c3)cc12 | binding, competition with immobilised ligand |  | 0.2 µM |  | inhibition | -0.76% |
| CC(C)=CC1OC(C)(C)C2C=C3C(=O)C(Cl)=CC(O)C3C3C(O)C4OC4C(=O)C132 (stereo not shown) | cell-free assay, competition with immobilised ligand |  | 10 µM |  | remaining binding | 70% |

A few entries again:
| Compound | test | system | setting | scale | endpoint | value |
| --- | --- | --- | --- | --- | --- | --- |
| CC(=O)N1c2ccc(-c3ccc(CNC(=O)c4cn5cc(-c6cnc(N)nc6)nc(N6CCOCC6)c5n4)cc3)cc2CC[C@@H]1C | KINOMEscan |  | 10 µM |  | remaining binding | 78% |
| CNC(=O)C1CCN(c2cc(C)c(F)cc2NC(=O)c2ccc(-c3cc(O)ccc3C)c(C)c2)CC1 | binding, competition with immobilised ligand |  | 1 µM |  | remaining binding | 100% |
